Published values of several laboratories.
“And” joins repeats or separate records; there may be more than shown. ± gives the spread as reported.

SMILES | cell line | assay | setting | how to read | quantity | value
Cc1c(Cl)cccc1Nc1ccccc1C(=O)[Se]CC(=O)Nc1cccc(C(F)(F)F)c1 | NCI60 CNS subpanel | cell growth | 10 µM, 48 h, one-dose |  | mean growth percent | -85.4%
CCCC(CCC)C(=O)OCc1cn(-c2cc3ccccc3oc2=O)nn1 | HOP-62 | NCI60 single-dose screen | 10 µM |  | growth percentage | 98.3%
NC(=O)c1cncc(N2Cc3cnn(Cc4ccc(F)cc4)c3C2)n1 | HEK293 expressing GluA1 and GluA2 | glutamate excitotoxic cell death, CellTox Green | together with: glutamate |  | IC50 | > 5000 nM
COc1cccc(OC)c1-c1cc(C(=O)NC2(C(=O)O)C3CC4CC(C3)CC2C4)nn1-c1ccc(C(=O)N(C)CCCN(C)C(=O)[C@H](CCCCNC(=O)[C@H](CC(C)C)NC(=O)C2OC2C(=O)O)NC(=O)CN2CCN(CC(=O)[O-])CCN(CC(=O)[O-])CCN(CC(=O)[O-])CC2)cc1C(C)C.[177Lu+3] (mixture of isomers) | HT-29 |  | concentration not given, 60 min | baseline: added activity | surface-bound fraction | 3.56 ± 0.46%
CCC(=CCc1c(O)cc2c(c1O)C(=O)CC(c1ccc(O)cc1)O2)CC (centres unmarked) | HeLa | flow cytometry | 12 µM, 48 h |  | sub-G1 cells | 7.42 ± 0.46%
O=C(C[Se]C(=O)c1cccnc1Nc1cccc(C(F)(F)F)c1)Nc1cccc(C(F)(F)F)c1 | NCI60 leukaemia subpanel | NCI60 five-dose screen |  |  | mean TGI | 4190 nM
CC1(C)CC[C@@]2(CO)C(=C3C=C[C@@H]4[C@@]5(C)CC[C@H](O)[C@@](C)(CO)[C@@H]5CC[C@@]4(C)[C@]3(C)C[C@@H]2O)C1 | HepG2, control siRNA | flow cytometry | concentration not given, high dose, together with: ethanol | baseline: control cells | relative ROS fluorescence | 0.586 and 0.745 and 0.93
O=[C]=[Mn-2]12(=[C]=O)(=[C]=O)[O]c3cc4c(cc3=[N+]1CCc1ccccc1)[O][Mn-2](=[C]=O)(=[C]=O)(=[C]=O)([N+]=4CCc1ccccc1)[n+]1ccc(cc1)C(=O)Oc1ccccc1OC(=O)c1cc[n+]2cc1 | HCT-15 | MTT | 50 µM, 48 h, photolysed compound |  | viability reduction | 88%
C=CC(=O)N1CCCC(n2c(=O)c3ncccc3n(Cc3ccc(Oc4ccccc4)cc3)c2=O)C1 (centres unmarked) | Rec1 | item: TMPO-AS1 | concentration not given | baseline: untreated | log2 fold change | -0.353
C=C(NC(=O)C(=C)NC(=O)c1csc(C2=N[C@@H]3c4csc(n4)[C@H]4NC(=O)c5csc(n5)[C@H]([C@](C)(O)[C@@H](C)O)NC(=O)[C@H]5CSC(=N5)/C(=C/C)NC(=O)[C@H]([C@@H](C)O)NC(=O)c5csc(n5)[C@]3(CC2)NC(=O)[C@H](C)NC(=O)C(=C)NC(=O)[C@H](C)NC(=O)[C@H]([C@@H](C)CC)N[C@@H]2C=Cc3c([C@H](C)O)cc(nc3[C@H]2O)C(=O)O[C@@H]4C)n1)C(N)=O | H-MESO-1 | cell viability, crystal violet | 6 h exposure, 48 h total |  | EC50 | 1700 nM
CCN(CC)CC(=O)Nc1cccc(-n2cc(-c3ccc4ccc(-c5cn(-c6cccc(NC(=O)CN(CC)CC)c6)nn5)cc4c3)nn2)c1 | RCC4 | PCR angiogenesis array, item: AKT1 | 5 x IC50, 2 h, normoxia | baseline: untreated | fold regulation | 1.01
CC(C)c1ccc(N(C)c2ccc3c(c2)OCC[C@H]3CNc2cnccc2C(=O)O)cc1 | HCC1419 | cell growth or viability, ATP luminescence | 7 days |  | IC50 | ≥ 10000 nM
COc1ccccc1-c1ccncc1C(=O)Nc1ccc(OCc2ccc(Cl)cc2)nn1 | DLD-1 parental (BRCA2 WT) |  | 20 µM, average of 3 runs | baseline: untreated | colony survival | 97.5%
CCCCCCCCCCCCCCCCCCOc1ccccc1CCOP(=O)([O-])OCC[N+](C)(C)C | HOP-92 | cell growth or viability, SRB | 10 µM |  | inhibition | 43%
COc1ccccc1-c1ccncc1C(=O)Nc1nnc(OCc2ccc(Cl)cc2)s1 | PEO1 BRCA2-mutant |  | 0.5 µM, together with: olaparib 0 µM | baseline: vehicle control | colony survival | 60.2%
O=C(Nc1nnc2c1c(-c1ccc(Cl)cc1)nc1sc(=Cc3ccco3)c(=O)n12)c1ccccc1 (mixture of isomers) | HOP-62 | SRB | 10 µM, NCI60 single-dose screen | baseline: untreated | cell growth | 31.1%
CN1CCCNC(=O)c2cccc(c2)C(=O)NCCCN(C)CCCNc2cccc3c2C(=O)c2cccc(c2C3=O)NCCC1 | SAS | RNA-Seq, item: PTCD1 mRNA | 1 µM, 6 h | baseline: untreated cells | log2 fold change | -0.44
CCc1n(CC(=O)O[C@@H]2C[C@H](C)CC[C@H]2C(C)C)c2ccccc2[n+]1C | HTS cells (mouse) | gene microarray, item: SLC7A3 | 1 µM, 24 h, unit not given | baseline: untreated | mRNA level | 9.51
O=C(C[Se]C(=O)c1cc2ccccc2s1)Nc1cccc(C(F)(F)F)c1 | NCI60 leukaemia subpanel | NCI60 five-dose screen |  |  | GI50 | 1350 nM
Cn1ncc2cc(-c3cncc(Cl)c3N3CCC4(CCNC4=O)CC3)ccc21 | LS174T | gene expression, microarray, item: GADD45G mRNA | concentration not given, 4 h | baseline: untreated cells | log2 fold change | -1.59
CN(C)CCOc1cc(NC(=O)c2cccc(C(=O)Nc3cc(OCCN(C)C)c4ccccc4n3)n2)nc2ccccc12 | HT-1080 | cell viability, CellTiter-Glo | 72 h | baseline: IC50 HT-1080 over WI-38 | selectivity ratio | 0.6
COC(=O)C1=C(C)Oc2cc(OC)ccc2C1C(C(C)=O)C(=O)OC (centres unmarked) | 3T3-L1 preadipocytes | adipogenesis, Oil Red O staining | IC20, 14 days, single replicate |  | lipid content | 0.721 OD492 and 0.711 OD492 and 0.732 OD492

SMILES | cell line | assay | setting | how to read | quantity | value
CC(=O)Oc1ccccc1C(=O)[Se]CC(=O)Nc1cccc(C(F)(F)F)c1 | NCI60 CNS subpanel | cell growth | 10 µM, 48 h, one-dose |  | mean growth percent | -55.1%
Cc1ncsc1-c1ccc(C(C)NC(=O)C2CC(O)CN2C(=O)C(NC(=O)CCCCCCCCCCN2CCCC(Nc3ncc(Cl)c(Nc4ccccc4S(=O)(=O)C(C)C)n3)C2)C(C)(C)C)cc1 (centres unmarked) | 22Rv1 | RNA-seq, item: ZNF844 mRNA | concentration not given | baseline: DMSO | log2 fold change | -1.54
C=CC(=O)Nc1cc(Nc2nccc(-c3c(-c4ccc(-c5ccccc5)cc4)n(C)c4ccccc34)n2)c(OC)cc1N(C)CCN(C)C | NCI-H1975 | cell growth or viability, MTT | 0.5 µM, 72 h |  | inhibition | 64.1%
COC(=O)c1cc(NC2=NC(=O)C(=Cc3ccc(N(C)C)cc3)S2)ccc1OC(C)=O | MCF7 | item: RAD51 mRNA | 0.81 µM (IC50), 24 h | baseline: DMSO | fold change | 0.25
CC1(C)CC(=O)C2=C(C1)Oc1ccc3ccccc3c1C2c1c[nH]c2ccccc12 (centres unmarked) | 3T3-L1 preadipocytes | adipogenesis, Oil Red O staining | IC20, 14 days |  | mean lipid content | 1.02 OD492
CC(C)Cc1ccc(C(C)C(=O)[Se]CC(=O)Nc2cccc(C(F)(F)F)c2)cc1 (centres unmarked) | NCI60 leukaemia subpanel | NCI60 five-dose screen |  |  | GI50 | 1970 nM
C=CC(=O)Nc1cc(Nc2nccc(-c3c(-c4ccc(F)cc4)n(C)c4ccccc34)n2)c(OC)cc1N(C)CCN(C)C | NCI-H1975 | cell growth or viability, MTT | 0.5 µM, 72 h |  | inhibition | 64.4%
O=C(C[Se]C(=O)C12CC3CC(CC(C3)C1)C2)Nc1cccc(C(F)(F)F)c1 | NCI60 leukaemia subpanel | NCI60 five-dose screen |  |  | mean TGI | 17300 nM
O=C(N1CCCC1)n1cc(-c2ccc(-c3ccccc3)cc2)nn1 | mouse T cells | N-terminal labelling proteomics, item: Tpi1 N-terminal peptide | 0.001 µM, 6 h | baseline: DMSO | SILAC ratio per peptide | 1 and 0.98 and 1.11
Cc1ncsc1-c1ccc([C@H](C)NC(=O)[C@@H]2C[C@@H](O)CN2C(=O)[C@@H](NC(=O)[C@H]2C[C@H](C(=O)N3CCC(c4cc(Nc5cc(C#N)ccn5)nc(N5CCC(F)(F)C5)c4)CC3)C2)C(C)(C)C)cc1 | CAL-33 with inducible wild-type LZK | MS proteomics, item: RNASE7 | 500 nM, 24 h, together with: doxycycline | baseline: DMSO | protein level log2 fold change | -0.0353
N=C(N)NCCC[C@@H](NC(=O)[C@H](Cc1ccccc1)NC(=O)[C@H](Cc1ccccc1)NC(=O)[C@@H](CCCNC(=N)N)NC(=O)CCCC[C@@H]1SC[C@@H]2NC(=O)N[C@@H]21)C(N)=O | MDBK | alamarBlue | concentration not given, 5 days, serum-free medium | baseline: untreated cells | maximum cell viability increase | 1.8 fold
O=C(C[Se]C(=O)c1cc2ccccc2[nH]1)Nc1cccc(C(F)(F)F)c1 | NCI60 leukaemia subpanel | NCI60 five-dose screen |  |  | mean TGI | 3650 nM
CNS(=O)(=O)Nc1nccc(Cc2c(C)c3ccc(Oc4ncccc4F)cc3oc2=O)c1F | NCI-H1915 | cell viability | 7 days |  | IC50 | 83.7 nM
COc1cc(N(C)CCN(C)C)c(NC(=O)/C=C/C2=Cc3ccccc3C2)cc1Nc1nccc(-c2cn(C)c3ccccc23)n1 | NCI-H1975 | cell growth or viability, MTT | 0.5 µM, 72 h |  | inhibition | 68.1%
CN1CCC(N[C@H]2CCc3[nH]c4c(C(N)=O)ccc(-c5ccccc5Cl)c4c3C2)CC1 | K562/DOX, doxorubicin-resistant | cell growth, CellTiter-Glo | 96 h |  | IC50 | 765 nM
Cc1ccc(-n2cc(CSc3nc4ccccc4n3Cc3cn(-c4ccc(C)cc4)nn3)nn2)cc1 | MDA-MB-231 | MTT | 15.6 ppm |  | cytotoxicity | 75.7%
C=CC(=O)Nc1cc(Nc2nccc(-c3c(-c4ccc(C(F)(F)F)cc4)n(C)c4ccccc34)n2)c(OC)cc1N(C)CCN(C)C | NCI-H1975 | cell growth or viability, MTT | 0.5 µM, 72 h |  | inhibition | 71.2%
O=C(C[Se]C(=O)c1ccccc1Nc1cccc(C(F)(F)F)c1)Nc1cccc(C(F)(F)F)c1 | NCI60 leukaemia subpanel | NCI60 five-dose screen |  |  | mean TGI | 4190 nM
C=CC(=O)Nc1cc(Nc2nccc(-c3c(-c4cccc(F)c4)n(C)c4ccccc34)n2)c(OC)cc1N(C)CCN(C)C | NCI-H1975 | cell growth or viability, MTT | 0.5 µM, 72 h |  | inhibition | 70.4%
C=CC(=O)N1[C@@H](c2ccc3c(c2)OCO3)c2[nH]c3ccccc3c2C[C@H]1C(=O)NC1CC1 | rat DRG neurons |  | 0.01372 µM, 48 h, together with: vincristine 40 nM |  | mean neuron degeneration | 82.9%
COc1cc(N(C)CCN(C)C)c(NC(=O)/C=C/c2cccc(C)c2)cc1Nc1nccc(-c2cn(C)c3ccccc23)n1 | NCI-H1975 | cell growth or viability, MTT | 0.5 µM, 72 h |  | inhibition | 64.5%
O=C(O)c1cccc(N2Cc3cnn(Cc4ccc(F)cc4)c3C2)c1 | HEK293 expressing GluA1 and GluA2 | glutamate excitotoxic cell death, CellTox Green | together with: glutamate |  | IC50 | 1050 nM

Some of these lines once more:
SMILES | cell line | assay | setting | how to read | quantity | value
C=C(NC(=O)C(=C)NC(=O)c1csc(C2=N[C@@H]3c4csc(n4)[C@H]4NC(=O)c5csc(n5)[C@H]([C@](C)(O)[C@@H](C)O)NC(=O)[C@H]5CSC(=N5)/C(=C/C)NC(=O)[C@H]([C@@H](C)O)NC(=O)c5csc(n5)[C@]3(CC2)NC(=O)[C@H](C)NC(=O)C(=C)NC(=O)[C@H](C)NC(=O)[C@H]([C@@H](C)CC)N[C@@H]2C=Cc3c([C@H](C)O)cc(nc3[C@H]2O)C(=O)O[C@@H]4C)n1)C(N)=O | H-MESO-1 | cell viability, crystal violet | 6 h exposure, 48 h total |  | EC50 | 1700 nM
CCN(CC)CC(=O)Nc1cccc(-n2cc(-c3ccc4ccc(-c5cn(-c6cccc(NC(=O)CN(CC)CC)c6)nn5)cc4c3)nn2)c1 | RCC4 | PCR angiogenesis array, item: AKT1 | 5 x IC50, 2 h, normoxia | baseline: untreated | fold regulation | 1.01
CC(C)c1ccc(N(C)c2ccc3c(c2)OCC[C@H]3CNc2cnccc2C(=O)O)cc1 | HCC1419 | cell growth or viability, ATP luminescence | 7 days |  | IC50 | ≥ 10000 nM
COc1ccccc1-c1ccncc1C(=O)Nc1ccc(OCc2ccc(Cl)cc2)nn1 | DLD-1 parental (BRCA2 WT) |  | 20 µM, average of 3 runs | baseline: untreated | colony survival | 97.5%
CCCCCCCCCCCCCCCCCCOc1ccccc1CCOP(=O)([O-])OCC[N+](C)(C)C | HOP-92 | cell growth or viability, SRB | 10 µM |  | inhibition | 43%
COc1ccccc1-c1ccncc1C(=O)Nc1nnc(OCc2ccc(Cl)cc2)s1 | PEO1 BRCA2-mutant |  | 0.5 µM, together with: olaparib 0 µM | baseline: vehicle control | colony survival | 60.2%
O=C(Nc1nnc2c1c(-c1ccc(Cl)cc1)nc1sc(=Cc3ccco3)c(=O)n12)c1ccccc1 (mixture of isomers) | HOP-62 | SRB | 10 µM, NCI60 single-dose screen | baseline: untreated | cell growth | 31.1%
